Measured values collected from several papers.
Every numbered part comes from another study and shows a few of its results, in no order. Values joined by “and” are separate records of one study, mostly repeats; a detail may differ.
UniProt Q14164, sequence (whole entry, looked up): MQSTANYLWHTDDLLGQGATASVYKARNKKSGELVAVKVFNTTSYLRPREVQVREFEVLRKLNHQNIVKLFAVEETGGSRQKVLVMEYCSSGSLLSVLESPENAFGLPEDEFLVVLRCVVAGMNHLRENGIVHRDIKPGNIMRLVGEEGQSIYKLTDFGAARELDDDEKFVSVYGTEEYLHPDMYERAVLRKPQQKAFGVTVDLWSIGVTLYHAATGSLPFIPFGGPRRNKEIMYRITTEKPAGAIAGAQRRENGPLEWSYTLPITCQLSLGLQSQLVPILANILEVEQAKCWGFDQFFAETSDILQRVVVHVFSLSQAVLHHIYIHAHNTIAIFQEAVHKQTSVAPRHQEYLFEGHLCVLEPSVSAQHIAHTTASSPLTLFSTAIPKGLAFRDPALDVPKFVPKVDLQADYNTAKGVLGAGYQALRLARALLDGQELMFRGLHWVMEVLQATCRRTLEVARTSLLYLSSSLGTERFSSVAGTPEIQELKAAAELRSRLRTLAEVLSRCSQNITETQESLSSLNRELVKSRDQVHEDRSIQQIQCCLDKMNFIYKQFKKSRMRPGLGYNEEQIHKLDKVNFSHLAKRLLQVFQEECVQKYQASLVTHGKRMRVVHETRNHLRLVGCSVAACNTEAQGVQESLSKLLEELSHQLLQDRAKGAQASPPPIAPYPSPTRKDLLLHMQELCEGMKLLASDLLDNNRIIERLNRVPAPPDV
UniProt P14616, sequence (whole entry, looked up): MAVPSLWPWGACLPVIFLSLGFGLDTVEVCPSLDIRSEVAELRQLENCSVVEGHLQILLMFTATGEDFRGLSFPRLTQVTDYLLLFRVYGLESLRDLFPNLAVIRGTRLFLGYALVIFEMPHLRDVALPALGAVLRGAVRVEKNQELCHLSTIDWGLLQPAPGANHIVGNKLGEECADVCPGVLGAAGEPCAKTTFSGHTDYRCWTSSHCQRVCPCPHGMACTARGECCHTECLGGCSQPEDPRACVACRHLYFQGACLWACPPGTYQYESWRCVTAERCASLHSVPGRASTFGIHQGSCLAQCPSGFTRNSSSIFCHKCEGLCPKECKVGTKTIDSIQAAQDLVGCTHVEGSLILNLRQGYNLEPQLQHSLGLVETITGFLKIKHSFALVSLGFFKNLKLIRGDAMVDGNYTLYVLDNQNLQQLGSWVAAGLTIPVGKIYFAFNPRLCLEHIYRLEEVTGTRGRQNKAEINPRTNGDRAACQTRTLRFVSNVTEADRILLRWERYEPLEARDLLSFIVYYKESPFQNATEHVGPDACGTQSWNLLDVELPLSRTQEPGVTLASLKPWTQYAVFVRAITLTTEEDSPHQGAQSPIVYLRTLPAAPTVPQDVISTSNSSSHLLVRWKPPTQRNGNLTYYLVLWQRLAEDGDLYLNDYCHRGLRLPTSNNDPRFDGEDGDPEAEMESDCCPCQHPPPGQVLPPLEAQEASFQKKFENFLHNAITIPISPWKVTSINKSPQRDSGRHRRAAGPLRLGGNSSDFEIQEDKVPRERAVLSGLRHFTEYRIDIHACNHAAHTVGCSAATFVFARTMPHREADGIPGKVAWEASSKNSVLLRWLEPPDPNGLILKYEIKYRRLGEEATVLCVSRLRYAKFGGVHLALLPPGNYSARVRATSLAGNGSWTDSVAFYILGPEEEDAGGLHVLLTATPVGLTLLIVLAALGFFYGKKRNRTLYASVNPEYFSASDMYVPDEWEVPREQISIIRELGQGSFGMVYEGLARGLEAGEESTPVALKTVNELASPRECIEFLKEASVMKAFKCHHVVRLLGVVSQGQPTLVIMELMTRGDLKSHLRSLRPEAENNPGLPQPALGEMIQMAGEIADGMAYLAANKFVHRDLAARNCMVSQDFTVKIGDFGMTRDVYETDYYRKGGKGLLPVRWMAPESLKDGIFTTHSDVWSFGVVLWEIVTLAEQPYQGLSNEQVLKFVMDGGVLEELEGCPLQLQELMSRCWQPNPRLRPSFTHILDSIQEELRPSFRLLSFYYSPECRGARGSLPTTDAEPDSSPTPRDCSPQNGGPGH

Study 1
Compound: O=C(Nc1cnn(-c2csc(C(=O)NC3COC3)c2)c1)Nc1c(F)cccc1Cl
Read-out: enzyme activity
Concentration: 5 µM
Reference: untreated control
target	remaining activity [%]
RIPK2 (Homo sapiens, UniProt O43353)	75.7
HIPK2 (Homo sapiens, UniProt Q9H2X6)	92.5
IKBKE (Homo sapiens, UniProt Q14164)	95
CAMK2G (Homo sapiens, UniProt Q13555)	89.9

Study 2
Target: Calcium/calmodulin-dependent protein kinase type II subunit alpha (CAMK2A, Homo sapiens, UniProt Q9UQM7)
UniProt Q9UQM7, sequence (whole entry, looked up): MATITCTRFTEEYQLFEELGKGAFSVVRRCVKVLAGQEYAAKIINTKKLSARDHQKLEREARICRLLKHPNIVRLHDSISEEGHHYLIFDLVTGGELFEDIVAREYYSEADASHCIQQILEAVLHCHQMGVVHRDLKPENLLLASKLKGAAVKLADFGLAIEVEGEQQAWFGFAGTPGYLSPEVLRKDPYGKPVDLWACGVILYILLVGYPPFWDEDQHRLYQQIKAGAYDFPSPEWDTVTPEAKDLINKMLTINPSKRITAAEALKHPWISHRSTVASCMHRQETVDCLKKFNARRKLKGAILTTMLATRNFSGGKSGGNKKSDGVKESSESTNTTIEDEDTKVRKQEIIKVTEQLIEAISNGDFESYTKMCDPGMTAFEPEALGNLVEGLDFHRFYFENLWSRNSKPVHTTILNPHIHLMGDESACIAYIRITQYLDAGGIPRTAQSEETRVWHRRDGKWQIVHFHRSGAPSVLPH
Read-out: enzyme activity
Action: inhibitor
Concentration: 10 µM
Structure (SMILES)	inhibition [%]
CN[C@@H]1[C@@H](O[C@H]2O[C@H](CO)[C@@H](N)[C@H](O)[C@H]2O)O[C@H]2C[C@@H](N)[C@@H](O[C@H]3[C@H](O)[C@@H](O)[C@H](N)C[C@@H]3N)O[C@@H]2[C@@H]1O	-19
CCCCN1C[C@H](O)[C@@H](O)[C@H](O)[C@H]1CO	-13
COc1cc2oc(=O)ccc2c(OC)c1C[C@@H](O)C(C)(C)O	-29
Nc1ccc(S(=O)(=O)Nc2ccccn2)cc1	-2
CC=C1[C@@H]2C=C(C)C[C@@]1(N)c1ccc(=O)[nH]c1C2 (racemic)	-5

Study 3
Compound: O=C(O)c1cc(-c2ccc(C3CCNCC3)cc2)c2ccc(-c3ccc(C(F)(F)F)cc3)cc2c1
Read-out: cell-free assay
Method: competition with immobilised ligand
Concentration: 1 µM
target	remaining binding [%]
FLT3 (Homo sapiens, UniProt P36888, D835V)	100
SGK2 (Homo sapiens, UniProt Q9HBY8)	100
LTK (Homo sapiens, UniProt P29376)	100
KIT (Homo sapiens, UniProt P10721, D816H)	100
MAP2K6 (Homo sapiens, UniProt P52564)	100
EGFR (Homo sapiens, UniProt P00533, A750P/del747-749)	100
FLT1 (Homo sapiens, UniProt P17948)	86
Aurora kinase A (AURKA, Homo sapiens, UniProt O14965)	100
TNNI3K (Homo sapiens, UniProt Q59H18)	100
FLT3 (Homo sapiens, UniProt P36888, D835Y)	100
MKNK1 (Homo sapiens, UniProt Q9BUB5)	100
FLT3 (Homo sapiens, UniProt P36888)	90
PAK1 (Homo sapiens, UniProt Q13153)	100
DCLK2 (Homo sapiens, UniProt Q8N568)	100
ALK (Homo sapiens, UniProt Q9UM73, C1156Y)	100
Tyrosine-protein kinase ABL1, phosphorylated (ABL1, Homo sapiens, UniProt P00519)	75
PIP4K2B (Homo sapiens, UniProt P78356)	91
IRAK3 (Homo sapiens, UniProt Q9Y616)	100
WNK4 (Homo sapiens, UniProt Q96J92)	100
ACVR2A (Homo sapiens, UniProt P27037)	100
EGFR (Homo sapiens, UniProt P00533, L858R/T790M)	100
IKBKE (Homo sapiens, UniProt Q14164)	100
INSRR (Homo sapiens, UniProt P14616)	100
NEK4 (Homo sapiens, UniProt P51957)	100
FER (Homo sapiens, UniProt P16591)	100

Study 4
Species: mouse
Matrix: microsomes or S9
Concentration: 2 µM
Time: 0.5 h
SMILES	remaining compound [%]
CCOc1cc(=O)n2c(c1C(=O)NCc1ccc(C)o1)CCCCC2	11.5
C[C@H](Nc1ncnc2[nH]cnc12)c1cc2ccccc2nc1-c1ccccc1	31.8
O=C1CN(c2nc(C3CCCC3)nc3c2CCOCC3)CCN1	84
CCc1nc(-c2cccc(-c3noc(-c4ccc(Br)o4)n3)c2)cs1	44.9
C/C(=C/c1cnc2ccsc2c1)c1cnccn1	2.15
CCc1nc(C)sc1Cn1cc(-c2cn(CC)nc2C)nn1	4.58
CC(Oc1cccnc1N)c1nnc2ccc(Cl)nn12 (stereo not shown)	64.9

Study 5
Target: DNA polymerase theta, ATPase domain (POLQ, Homo sapiens, UniProt O75417)
UniProt O75417, sequence (whole entry, unmodified, looked up): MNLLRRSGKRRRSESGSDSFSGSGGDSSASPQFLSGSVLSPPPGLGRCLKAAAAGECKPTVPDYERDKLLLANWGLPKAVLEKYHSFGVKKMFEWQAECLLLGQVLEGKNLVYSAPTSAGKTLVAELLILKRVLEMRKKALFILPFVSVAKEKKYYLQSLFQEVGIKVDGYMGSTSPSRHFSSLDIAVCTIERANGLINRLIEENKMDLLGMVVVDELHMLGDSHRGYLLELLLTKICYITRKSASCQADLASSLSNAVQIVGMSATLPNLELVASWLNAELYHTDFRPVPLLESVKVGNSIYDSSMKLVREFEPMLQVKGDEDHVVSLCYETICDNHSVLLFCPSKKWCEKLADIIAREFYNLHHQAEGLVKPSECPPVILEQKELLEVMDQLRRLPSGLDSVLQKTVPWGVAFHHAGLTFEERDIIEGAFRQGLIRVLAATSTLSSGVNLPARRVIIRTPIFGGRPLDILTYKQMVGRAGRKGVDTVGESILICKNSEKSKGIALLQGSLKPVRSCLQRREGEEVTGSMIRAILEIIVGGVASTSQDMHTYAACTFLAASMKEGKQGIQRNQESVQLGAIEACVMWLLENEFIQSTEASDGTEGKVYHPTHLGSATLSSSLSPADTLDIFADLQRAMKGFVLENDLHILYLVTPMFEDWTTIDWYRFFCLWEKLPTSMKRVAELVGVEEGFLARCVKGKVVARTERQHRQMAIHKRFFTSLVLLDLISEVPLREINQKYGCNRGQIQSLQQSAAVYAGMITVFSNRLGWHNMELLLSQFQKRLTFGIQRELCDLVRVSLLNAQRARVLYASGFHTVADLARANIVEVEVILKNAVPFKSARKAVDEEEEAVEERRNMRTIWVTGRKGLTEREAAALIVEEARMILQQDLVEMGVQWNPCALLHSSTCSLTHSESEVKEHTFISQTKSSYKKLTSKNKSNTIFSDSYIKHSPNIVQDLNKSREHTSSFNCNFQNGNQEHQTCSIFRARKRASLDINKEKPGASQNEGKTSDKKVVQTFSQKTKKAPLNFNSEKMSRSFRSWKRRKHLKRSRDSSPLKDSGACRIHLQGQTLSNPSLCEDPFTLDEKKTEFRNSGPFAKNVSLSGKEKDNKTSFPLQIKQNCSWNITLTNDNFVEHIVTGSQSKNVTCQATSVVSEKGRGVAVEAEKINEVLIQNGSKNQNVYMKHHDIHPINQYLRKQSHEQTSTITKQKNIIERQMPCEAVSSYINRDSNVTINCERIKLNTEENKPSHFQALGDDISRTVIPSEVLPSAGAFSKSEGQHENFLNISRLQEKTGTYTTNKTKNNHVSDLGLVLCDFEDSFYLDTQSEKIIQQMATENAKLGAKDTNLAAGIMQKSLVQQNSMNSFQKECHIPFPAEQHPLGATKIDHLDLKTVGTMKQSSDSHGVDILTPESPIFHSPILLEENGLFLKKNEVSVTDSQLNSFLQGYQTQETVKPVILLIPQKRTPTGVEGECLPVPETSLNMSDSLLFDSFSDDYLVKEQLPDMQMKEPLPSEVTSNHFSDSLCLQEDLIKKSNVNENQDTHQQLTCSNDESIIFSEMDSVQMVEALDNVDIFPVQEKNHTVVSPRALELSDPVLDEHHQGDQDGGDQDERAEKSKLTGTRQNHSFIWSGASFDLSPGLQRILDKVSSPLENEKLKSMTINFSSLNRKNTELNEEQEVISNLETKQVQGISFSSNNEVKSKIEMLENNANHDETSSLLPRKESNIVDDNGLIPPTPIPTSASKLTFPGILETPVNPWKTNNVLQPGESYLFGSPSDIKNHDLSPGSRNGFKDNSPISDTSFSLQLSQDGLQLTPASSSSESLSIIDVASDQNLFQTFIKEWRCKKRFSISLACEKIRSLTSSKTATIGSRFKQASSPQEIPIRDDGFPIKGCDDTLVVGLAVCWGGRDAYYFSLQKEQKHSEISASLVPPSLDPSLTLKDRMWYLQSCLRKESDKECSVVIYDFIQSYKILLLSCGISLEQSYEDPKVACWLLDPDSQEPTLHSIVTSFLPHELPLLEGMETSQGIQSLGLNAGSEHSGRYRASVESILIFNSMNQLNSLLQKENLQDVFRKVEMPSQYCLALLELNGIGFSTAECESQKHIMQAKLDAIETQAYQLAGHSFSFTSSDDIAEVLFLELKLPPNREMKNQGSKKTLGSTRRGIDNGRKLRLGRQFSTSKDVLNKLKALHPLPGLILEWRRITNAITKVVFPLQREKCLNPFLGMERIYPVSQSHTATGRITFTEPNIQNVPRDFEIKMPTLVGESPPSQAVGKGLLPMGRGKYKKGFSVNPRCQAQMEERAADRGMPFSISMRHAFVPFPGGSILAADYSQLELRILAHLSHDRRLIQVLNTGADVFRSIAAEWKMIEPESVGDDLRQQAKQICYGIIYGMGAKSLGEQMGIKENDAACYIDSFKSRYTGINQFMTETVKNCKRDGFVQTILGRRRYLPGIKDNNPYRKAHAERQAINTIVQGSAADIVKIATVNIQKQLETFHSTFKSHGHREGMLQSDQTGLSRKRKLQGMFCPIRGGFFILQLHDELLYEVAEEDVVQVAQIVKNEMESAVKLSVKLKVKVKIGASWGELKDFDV
Read-out: enzyme activity
Action: inhibitor
Concentration: 77 µM
Reference: untreated
Compound	remaining activity
Nc1nc(SCc2ccc([N+](=O)[O-])cc2)c2ncn([C@@H]3O[C@H](CO)[C@@H](O)[C@H]3O)c2n1	97.3%
COc1ccc(C(=O)Nc2sc3c(c2C(N)=O)CCCC3)cc1OC	113%
CCOC(=O)C1=C(N)Oc2ccc(Br)cc2[C@H]1[C@H](C#N)C(=O)OCC	99%
CC(=O)Oc1ccc(C(c2ccc(OC(C)=O)cc2)c2ccccn2)cc1	96.9% and 107%
C[C@H](Oc1cc(-c2cnn(C3CCNCC3)c2)cnc1N)c1c(Cl)ccc(F)c1Cl	117%

Study 6
Organism: Sarcocystis neurona
Read-out: parasite growth
Concentration: 10 µM
Time: 96 h
SMILES	inhibition [%]
O=c1c(O[C@@H]2O[C@H](CO)[C@@H](O)[C@H](O)[C@H]2O)c(-c2ccc(O)c(O)c2)oc2cc(O)cc(O)c12	-11.9
CN(C)CCC[C@@]1(c2ccc(F)cc2)OCc2cc(C#N)ccc21	-3.7
COc1c(N2CCNC(C)C2)c(F)cc2c(=O)c(C(=O)O)cn(C3CC3)c12 (stereo not shown)	-5.6
Cc1cnc(C(=O)NCCc2ccc(S(=O)(=O)NC(=O)NC3CCCCC3)cc2)cn1	-14.5
CN(C)c1nc(N(C)C)nc(N(C)C)n1	-17.9
CC(C)[C@H]1CC[C@H](C(=O)N[C@H](Cc2ccccc2)C(=O)O)CC1	-6.2

A few entries again (study 3):
target	remaining binding [%]
FLT3 (Homo sapiens, UniProt P36888)	90
PIP4K2B (Homo sapiens, UniProt P78356)	91
ACVR2A (Homo sapiens, UniProt P27037)	100
